# Measurements of several laboratories.
# Each numbered part is a random draw from the data of one study; scales do not carry over between parts. Values joined by “and” are separate records of one study, mostly repeats; a detail may differ.
# Sequence of UniProt D3Z7P3 (whole entry, looked up): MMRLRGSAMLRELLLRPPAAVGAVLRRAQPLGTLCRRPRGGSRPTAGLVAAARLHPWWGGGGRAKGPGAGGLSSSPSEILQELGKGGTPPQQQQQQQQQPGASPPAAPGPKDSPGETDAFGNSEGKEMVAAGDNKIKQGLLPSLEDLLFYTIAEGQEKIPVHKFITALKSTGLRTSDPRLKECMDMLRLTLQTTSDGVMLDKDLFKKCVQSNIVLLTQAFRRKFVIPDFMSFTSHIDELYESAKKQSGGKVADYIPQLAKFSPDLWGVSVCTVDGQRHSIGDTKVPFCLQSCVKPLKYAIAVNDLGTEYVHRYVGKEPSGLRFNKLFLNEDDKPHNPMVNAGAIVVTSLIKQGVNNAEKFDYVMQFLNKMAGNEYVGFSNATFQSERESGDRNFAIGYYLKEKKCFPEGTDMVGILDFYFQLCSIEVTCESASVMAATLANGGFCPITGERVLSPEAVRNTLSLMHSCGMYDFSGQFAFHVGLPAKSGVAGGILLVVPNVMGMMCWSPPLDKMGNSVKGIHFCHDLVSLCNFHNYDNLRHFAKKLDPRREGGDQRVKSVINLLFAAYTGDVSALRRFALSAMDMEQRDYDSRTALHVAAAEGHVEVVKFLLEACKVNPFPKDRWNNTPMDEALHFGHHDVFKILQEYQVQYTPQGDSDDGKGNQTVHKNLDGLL
# Sequence of UniProt P51812 (whole entry, looked up): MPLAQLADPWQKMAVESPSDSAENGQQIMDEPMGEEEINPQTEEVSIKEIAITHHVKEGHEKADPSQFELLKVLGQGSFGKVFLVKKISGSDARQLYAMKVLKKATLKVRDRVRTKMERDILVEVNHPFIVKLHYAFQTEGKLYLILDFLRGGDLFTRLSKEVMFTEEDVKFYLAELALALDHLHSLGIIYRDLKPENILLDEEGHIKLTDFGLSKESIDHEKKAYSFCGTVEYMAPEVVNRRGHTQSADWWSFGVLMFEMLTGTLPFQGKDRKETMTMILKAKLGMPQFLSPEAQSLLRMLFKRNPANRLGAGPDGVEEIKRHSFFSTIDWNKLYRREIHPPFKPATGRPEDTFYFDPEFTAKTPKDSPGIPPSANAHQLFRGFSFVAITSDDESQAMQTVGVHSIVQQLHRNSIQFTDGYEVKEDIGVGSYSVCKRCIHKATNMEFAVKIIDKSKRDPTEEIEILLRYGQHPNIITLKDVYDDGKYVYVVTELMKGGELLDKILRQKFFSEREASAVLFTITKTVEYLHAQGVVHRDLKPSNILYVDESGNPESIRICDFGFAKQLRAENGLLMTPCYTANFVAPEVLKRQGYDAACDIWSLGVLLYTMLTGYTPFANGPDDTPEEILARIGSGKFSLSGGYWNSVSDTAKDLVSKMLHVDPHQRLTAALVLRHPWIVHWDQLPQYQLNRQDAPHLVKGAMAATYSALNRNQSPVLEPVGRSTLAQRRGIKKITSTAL
# Sequence of UniProt P10721 (whole entry, unmodified, looked up): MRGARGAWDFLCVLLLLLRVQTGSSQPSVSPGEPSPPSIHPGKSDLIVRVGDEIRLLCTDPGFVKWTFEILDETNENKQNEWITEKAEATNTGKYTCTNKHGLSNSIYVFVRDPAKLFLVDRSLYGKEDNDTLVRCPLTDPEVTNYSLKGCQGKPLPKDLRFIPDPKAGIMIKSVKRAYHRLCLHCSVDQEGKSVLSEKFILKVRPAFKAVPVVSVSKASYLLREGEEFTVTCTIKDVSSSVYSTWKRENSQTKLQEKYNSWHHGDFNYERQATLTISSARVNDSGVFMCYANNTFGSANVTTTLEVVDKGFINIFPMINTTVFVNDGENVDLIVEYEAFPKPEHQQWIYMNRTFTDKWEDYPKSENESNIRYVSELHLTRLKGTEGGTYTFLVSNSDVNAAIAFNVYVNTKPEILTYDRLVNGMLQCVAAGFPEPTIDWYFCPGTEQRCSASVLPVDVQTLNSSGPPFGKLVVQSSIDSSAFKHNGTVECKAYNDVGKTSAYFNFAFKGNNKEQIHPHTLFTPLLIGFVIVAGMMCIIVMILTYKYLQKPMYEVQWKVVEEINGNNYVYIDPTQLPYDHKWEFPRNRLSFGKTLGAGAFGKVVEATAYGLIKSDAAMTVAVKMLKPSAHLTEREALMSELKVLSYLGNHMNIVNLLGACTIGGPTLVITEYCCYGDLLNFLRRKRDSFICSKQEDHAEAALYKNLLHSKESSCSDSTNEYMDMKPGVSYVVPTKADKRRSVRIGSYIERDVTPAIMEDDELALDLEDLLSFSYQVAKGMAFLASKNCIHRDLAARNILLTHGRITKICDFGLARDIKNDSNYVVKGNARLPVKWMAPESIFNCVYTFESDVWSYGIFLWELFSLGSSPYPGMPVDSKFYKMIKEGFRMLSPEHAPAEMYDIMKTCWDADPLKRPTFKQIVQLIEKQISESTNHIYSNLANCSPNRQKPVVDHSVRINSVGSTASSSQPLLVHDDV
# Sequence of UniProt P07333 (whole entry, looked up): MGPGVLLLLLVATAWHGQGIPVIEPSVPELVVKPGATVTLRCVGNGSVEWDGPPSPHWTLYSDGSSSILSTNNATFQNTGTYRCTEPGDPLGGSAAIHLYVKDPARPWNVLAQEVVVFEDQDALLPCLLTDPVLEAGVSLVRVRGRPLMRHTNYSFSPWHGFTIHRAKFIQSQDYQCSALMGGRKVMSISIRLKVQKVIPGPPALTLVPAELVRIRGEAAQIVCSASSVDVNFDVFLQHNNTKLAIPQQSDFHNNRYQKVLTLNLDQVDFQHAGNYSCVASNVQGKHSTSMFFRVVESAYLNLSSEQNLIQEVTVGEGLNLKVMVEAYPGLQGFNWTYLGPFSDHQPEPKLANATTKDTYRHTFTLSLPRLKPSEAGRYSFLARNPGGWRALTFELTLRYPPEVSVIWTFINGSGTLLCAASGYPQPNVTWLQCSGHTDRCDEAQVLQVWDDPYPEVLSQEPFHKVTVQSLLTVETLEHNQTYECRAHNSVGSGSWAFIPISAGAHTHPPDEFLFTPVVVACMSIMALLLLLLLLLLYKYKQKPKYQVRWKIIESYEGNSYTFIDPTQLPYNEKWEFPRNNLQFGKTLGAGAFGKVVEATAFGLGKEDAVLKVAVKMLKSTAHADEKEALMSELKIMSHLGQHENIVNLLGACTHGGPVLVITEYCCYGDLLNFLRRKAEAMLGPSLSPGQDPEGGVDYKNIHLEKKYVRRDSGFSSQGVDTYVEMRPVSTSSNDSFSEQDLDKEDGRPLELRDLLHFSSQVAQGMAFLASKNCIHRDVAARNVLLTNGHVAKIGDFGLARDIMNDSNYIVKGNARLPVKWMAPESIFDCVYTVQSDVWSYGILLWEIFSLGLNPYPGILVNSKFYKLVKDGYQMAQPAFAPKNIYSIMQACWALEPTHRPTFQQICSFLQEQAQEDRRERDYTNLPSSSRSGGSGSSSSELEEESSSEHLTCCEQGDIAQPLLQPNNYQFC

# Study 1 — read-out: enzyme activity; mode: inhibitor; concentration: 0.5 µM; reference: control
# Target: Calcium/calmodulin-dependent protein kinase type 1D (CAMK1D, Homo sapiens, UniProt Q8IU85)
# Sequence of UniProt Q8IU85 (whole entry, looked up): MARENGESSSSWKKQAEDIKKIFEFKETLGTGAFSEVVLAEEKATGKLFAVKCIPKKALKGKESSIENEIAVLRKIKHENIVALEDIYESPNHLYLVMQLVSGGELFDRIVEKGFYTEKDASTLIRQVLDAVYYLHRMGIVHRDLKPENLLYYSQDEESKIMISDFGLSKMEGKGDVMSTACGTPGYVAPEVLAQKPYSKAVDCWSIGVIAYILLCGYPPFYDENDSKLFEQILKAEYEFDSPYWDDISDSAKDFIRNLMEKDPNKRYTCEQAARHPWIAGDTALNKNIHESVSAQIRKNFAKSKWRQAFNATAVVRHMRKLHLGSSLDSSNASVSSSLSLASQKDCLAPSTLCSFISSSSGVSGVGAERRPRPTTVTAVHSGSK
Structure (SMILES),remaining activity [%]
O=C(c1cc2cc(O)ccc2[nH]1)c1cc2cc(O)ccc2[nH]1,91.5
CN(C)S(=O)(=O)c1ccc2c(c1)/C(=C/c1cc3c([nH]1)CCCC3)C(=O)N2,99.8
O=C(c1ccccc1)c1ccc(N2CCOCC2)cc1O,99.1
O=C1c2ccccc2-c2nc3nnnn3nc21,93.9
CC(C)n1cnc2c(Nc3cccc(Cl)c3)nc(NCCO)nc21,98.1
CNc1cc2c(Nc3cccc(Br)c3)ncnc2cn1,92.5
COc1cccc(-c2cc(=O)c3ccccc3o2)c1N,65.3
COc1ccc(COc2ccc(Cc3cnc(N)nc3N)cc2OC)cc1,93
O=c1c(-c2ccc(F)cc2)c(-c2ccncc2)[nH]n1-c1ccc(Cl)cc1,72.2
CCCCc1c(-c2ccc(O)cc2)[nH]c2nccnc12,96.9
N#C/C(=C(/N)SC1C=CC=CC1)c1cccc(C(O)c2ccncc2)c1 (stereo not shown),92
C[C@@H](N)[C@H]1CC[C@H](C(=O)Nc2ccncc2)CC1,93.7
Clc1ccc(Nc2nnc(Cc3ccncc3)c3ccccc23)cc1,108
CCCCc1c(-c2ccc(OC)cc2)[nH]c2nccnc12,97.9
O=C(O)/C=C/c1cc(Br)c(Br)c(Br)c1Br,98.1
CC(C)(C)c1nc2c3cc[nH]c(=O)c3c3cc(F)ccc3c2[nH]1,81.6
Nc1nc(Nc2ccc(S(N)(=O)=O)cc2)nn1C(=S)Nc1c(F)cccc1F,93.4
O=C1Nc2ccc(Br)cc2/C1=C/c1cc2c([nH]1)CCCC2,96.8
O=C1NC(=O)/C(=C/c2ccc3c(c2)OC(F)(F)O3)S1,83.2
FC(F)(F)c1ccc(/C=C/c2nc(COc3ccc(CCCCn4ccnn4)cc3)co2)cc1,109
NC(=O)c1ccc(-c2nc(-c3ccc4c(c3)OCCO4)c(-c3ccccn3)[nH]2)cc1,99
O=C1NC(=O)c2c1c1c3ccccc3[nH]c1c1[nH]c3cc(Br)ccc3c21,92.2
O=Nc1c(-c2c(O)[nH]c3ccccc23)[nH]c2ccccc12,92.3
CCN(CC)CCCCN1c2ccccc2Oc2ccc(Cl)cc21,107
c1cc(-c2cnn3cc(-c4ccc(OCCN5CCCCC5)cc4)cnc23)ccn1,95.4

# Study 2 — cell line: A-375; concentration: 100 µM; time: 36 h
Structure (SMILES),viability [%]
CC(=O)OCC(=O)[C@@]1(O)CC[C@H]2[C@@H]3CCC4=CC(=O)CC[C@]4(C)[C@H]3[C@@H](O)C[C@@]21C,106
O=P(O)(O)C(O)(Cn1ccnc1)P(=O)(O)O,79.2
CO[C@H]1O[C@@H]2O[C@@]3(C)CC[C@H]4[C@H](C)CC[C@@H]([C@H]1C)[C@@]24OO3,44
C[C@H]1O[C@@H](O[C@H]2CC[C@@]3(C)[C@@H](CC[C@]4(C)[C@@H]3C=C[C@]35OC[C@@]6(CCC(C)(C)C[C@H]63)[C@@H](O)C[C@]54C)[C@]2(C)CO)[C@H](O)[C@@H](O[C@@H]2O[C@H](CO)[C@@H](O)[C@H](O)[C@H]2O)[C@H]1O,0.91
O=C(O)c1cc(=O)c2c(OCC(O)COc3cccc4oc(C(=O)O)cc(=O)c34)cccc2o1,121
CCCNS(=O)(=O)Nc1ncnc(OCCOc2ncc(Br)cn2)c1-c1ccc(Br)cc1,71.9

# Study 3 — organism: Sarcocystis neurona; read-out: parasite growth; concentration: 10 µM
SMILES,inhibition [%]
CC[C@H]1OC(=O)[C@H](C)[C@@H](O[C@H]2C[C@@](C)(OC)[C@@H](O)[C@H](C)O2)[C@H](C)[C@@H](O[C@@H]2O[C@H](C)C[C@H](N(C)C)[C@H]2O)[C@](C)(O)C[C@@H](C)CN(C)[C@H](C)[C@@H](O)[C@]1(C)O,2.2
CCOC(=O)OC(C)OC1=C(C(=O)Nc2ccccn2)N(C)S(=O)(=O)c2ccccc21 (stereo not shown),-23.9
COc1cc([C@@H]2c3cc4c(cc3[C@@H](O[C@@H]3O[C@@H]5CO[C@@H](C)O[C@H]5[C@H](O)[C@H]3O)[C@H]3COC(=O)[C@H]23)OCO4)cc(OC)c1O,-22.2
Fc1ccc([C@@H]2CCNC[C@H]2COc2ccc3c(c2)OCO3)cc1.O=C(O)/C=C\C(=O)O,4.2
C[C@H]1C[C@H]2[C@@H]3CCC4=CC(=O)C=C[C@]4(C)[C@@]3(Cl)[C@@H](O)C[C@]2(C)[C@@]1(O)C(=O)CO,3.2
CC[C@H](C)C(=O)O[C@H]1C[C@@H](C)C=C2C=C[C@H](C)[C@H](CC[C@@H]3C[C@@H](O)CC(=O)O3)[C@H]21,-22.5
CN1CCN(C2=Nc3cc(Cl)ccc3Nc3ccccc32)CC1,-29.7

# Study 4 — method: Incucyte 3D growth; concentration: 30 µM; direction: higher = more growth
# Structure (SMILES): CC(C)(C(=O)O)[C@H](NC(=O)Cc1cccc(I)c1)c1ccc2oc(=O)[nH]c2c1
cell line,time,spheroid area
PC-9,192 h,1.65e+09 a.u. and 1.63e+09 a.u. and 1.73e+09 a.u. and 1.71e+09 a.u. and 1.62e+09 a.u. and 1.7e+09 a.u.
KP-4,66 h,1.69e+07 a.u. and 1.59e+07 a.u. and 1.38e+07 a.u. and 1.41e+07 a.u. and 1.46e+07 a.u. and 1.36e+07 a.u.
NCI-H358,30 h,3.71e+06 a.u. and 3.77e+06 a.u. and 3.93e+06 a.u. and 3.72e+06 a.u. and 3.8e+06 a.u. and 4.76e+06 a.u.
A375,246 h,1.33e+08 a.u. and 1.59e+08 a.u. and 1.31e+08 a.u. and 1.39e+08 a.u. and 1.18e+08 a.u.
NCI-H1437,156 h,3.18e+07 a.u. and 3.58e+07 a.u. and 2.95e+07 a.u. and 4.25e+07 a.u. and 4.66e+07 a.u. and 3.05e+07 a.u.
PC-9,234 h,1.85e+09 a.u. and 1.9e+09 a.u. and 1.84e+09 a.u. and 1.79e+09 a.u. and 1.86e+09 a.u.

# Study 5 — method: PRP chromatography; notes: linear fit, 1 mL
SMILES,"logD 1,9-decadiene/water [log units]"
CC(C)C[C@@H]1NC(=O)[C@@H](C)NC(=O)[C@H](Cc2cscn2)NC(=O)[C@@H](C(C)C)NC(=O)[C@H](C(C)C)NC(=O)[C@H](CC(C)C)NC(=O)[C@@H](CC(C)C)NC1=O,0.187
CC(C)C[C@@H]1NC(=O)[C@H](C(C)C)NC(=O)[C@H](Cc2cscn2)NC(=O)[C@H](CCC(=O)N2CCCC2)NC(=O)[C@@H](CCC(=O)N2CCCC2)NC(=O)[C@H](CC(C)C)NC(=O)[C@@H](CC(C)C)NC1=O,-1.96
CC(C)C[C@@H]1NC(=O)[C@H](Cc2cscn2)NC(=O)[C@@H](CC(C)C)NC(=O)[C@@H](CCC(=O)N2CCCC2)NC(=O)[C@H](CC(C)C)NC(=O)[C@@H](CC(C)C)NC(=O)[C@H](CC(C)C)NC1=O,0.345
CC(C)C[C@@H]1NC(=O)[C@H](Cc2cscn2)NC(=O)[C@H](C)NC(=O)[C@@H](CC(C)C)NC(=O)[C@@H](CCC(=O)N2CCCC2)NC(=O)[C@H](CC(C)C)NC(=O)[C@@H](CC(C)C)NC1=O,-0.765
CC(C)C[C@@H]1NC(=O)[C@H](C)NC(=O)[C@@H](CC(C)C)NC(=O)[C@H](C)NC(=O)[C@@H](CCC(=O)N2CCCC2)NC(=O)[C@H](CC(C)C)NC(=O)[C@@H](CC(C)C)NC1=O,-1.56

# Study 6 — read-out: cell-free assay; method: competition with immobilised ligand; concentration: 0.1 µM
# Structure (SMILES): CS(=O)(=O)N1CCCC(NC(=O)[C@H](CCC2CCCCC2)NC(=O)c2ccc(CNc3ncnc4c3nnn4-c3ccccc3)cc2)C1 (stereo partly shown)
target,remaining binding [%]
"Ribosomal protein S6 kinase alpha-3, C-terminal kinase domain (RPS6KA3, Homo sapiens, UniProt P51812)",100
"CSF1R (Homo sapiens, UniProt P07333)",100
"Receptor-type tyrosine-protein kinase FLT3, autoinhibited (FLT3, Homo sapiens, UniProt P36888)",97
"Tyrosine-protein kinase ABL1, phosphorylated (ABL1, Homo sapiens, UniProt P00519, Y253F)",84
"KIT (Homo sapiens, UniProt P10721, A829P)",100

# Further values, each from its own experiment
Structure (SMILES),target,species,sample,route,dose,measurement,result
CC(=O)N[C@@H](Cc1c[nH]c2ccccc12)C(=O)N[C@@H](CCC(=O)C=[N+]=[N-])C(=O)OC(C)C,"Glutaminase kidney isoform, mitochondrial (Mus musculus, UniProt D3Z7P3)","C57BL/6 CES1-/- mouse, EL4 tumour",tumour,subcutaneous,dose not given,enzyme activity,557 fmol/mg/h

# Some of these lines once more (study 3):
SMILES,inhibition [%]
CCOC(=O)OC(C)OC1=C(C(=O)Nc2ccccn2)N(C)S(=O)(=O)c2ccccc21 (stereo not shown),-23.9
COc1cc([C@@H]2c3cc4c(cc3[C@@H](O[C@@H]3O[C@@H]5CO[C@@H](C)O[C@H]5[C@H](O)[C@H]3O)[C@H]3COC(=O)[C@H]23)OCO4)cc(OC)c1O,-22.2
Fc1ccc([C@@H]2CCNC[C@H]2COc2ccc3c(c2)OCO3)cc1.O=C(O)/C=C\C(=O)O,4.2
C[C@H]1C[C@H]2[C@@H]3CCC4=CC(=O)C=C[C@]4(C)[C@@]3(Cl)[C@@H](O)C[C@]2(C)[C@@]1(O)C(=O)CO,3.2
